# Experimental data gathered from unrelated publications.
# Each numbered part is a random draw from the data of one study; scales do not carry over between parts.

# Sample 1 — technique: protein-binding microarray; form: double-stranded DNA, one strand shown; matrix: in vitro; tested at: 250 nM; setting: 60-bp whole probe; with: salmon DNA 0.4 mg/ml; relative to: random background probes; reading: higher = stronger binding; constant ends, left off below: GCCTAGCAC … GTCTTGATTCGCTTGACGCTGCTG
# Target: Interferon regulatory factor 5, full length, phosphomimetic (IRF5, Homo sapiens, UniProt Q13568-2, residues 1-514, K96S/S451D/S453D/S456D/S462D)
Sequence,log fluorescence [z-score]
GACGGTCTCCTACTGTTGACGTGCTAG,0.112
GACGGTTTCGGGTTACGGGACGTGCTA,7.8
GACGGTTTCGGGACTGGGGAAGTGCTA,4.9
TCAGTTCTTTTTTTCAAACTGTGCTAG,0.697
GACGATTTCCGTTTCGAGACGTGCTAG,3.63
GAAGTTCTTTTTTTCAAGAAGTGCTAG,0.479
GACGATTTCGGGTTTCCAGACGTGCTA,3.56
TTAGAACTGGGGTATCGAATAGTGCTA,0.541
GACGATATCAGGCTCGAGACGTGCTAG,0.194
GACGGTTTCCTTCTCCTTACGTGCTAG,1.09
TTCGGTATCGACTATCGGTTAGTGCTA,8.7
GGCCTCTCTGTTTTCCTGTTGTGCTAG,0.163
GACGGTATCGTTTTCCTGACGTGCTAG,2.57
TTAGATATCAGCATCGATTAGTGCTAG,1.22
TTGTCTCCCCCATCTTGTTCCGTGCTA,0.223
GACGGTCTCAGACTGGAGACGTGCTAG,-0.541

# Sample 2 — technique: RNA Bind-n-Seq; form: RNA; matrix: in vitro; tested at: not given; setting: RNA with constant flanks, ends assumed; relative to: input RNA pool; reading: higher = stronger binding
# Target: RING finger protein unkempt homolog, zinc fingers 1-6, GST-SBP tag (UNK, Homo sapiens, UniProt Q9C0B0, residues 30-357)
# Constant ends, left off below: GGGAGUUCUACAGUCCGACGAUC … CAACAGAGGAUUGAGCAUCA
# Construct (chain): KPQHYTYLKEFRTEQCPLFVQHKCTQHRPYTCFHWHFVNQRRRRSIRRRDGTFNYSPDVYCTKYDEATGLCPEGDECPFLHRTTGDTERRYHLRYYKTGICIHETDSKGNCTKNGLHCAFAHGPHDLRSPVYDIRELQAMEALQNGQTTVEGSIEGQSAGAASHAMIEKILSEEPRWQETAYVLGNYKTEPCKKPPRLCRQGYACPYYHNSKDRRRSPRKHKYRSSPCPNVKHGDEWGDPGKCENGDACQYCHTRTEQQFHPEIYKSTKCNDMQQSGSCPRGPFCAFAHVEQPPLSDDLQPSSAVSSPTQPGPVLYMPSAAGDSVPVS
Sequence,bound/input enrichment [ratio]
CUGUGCGACUAUUCUCCGGGAGCCGUCCGUGUCACCGCCGGAACCUGGCGCAGGUUAAUUACCGAAAAUGCCAAGUAGGAAAUUUGCCGAUGGUGAAGUGGUAAGAGGUCGAUGGCCUGG,0.0993
GGAAAAAACAGCCUAUCUGUACUUUCACCGAAAAUUGGAAAUUUGCUAUUUCUUUCCUACUCCGAUGUAAAAGGUAAUCACUUUGAAAUCCUCCCUCCUGAACUGGGUGACUGUCGGGCU,0.494
UCUUGGUCUCCAAAUCCUACACCUUACUUUGAAACACCACUGGCUCCCUUUCCCAAUGGCCGUUUUGUGAAUGGCUUUAAUUCGCCAGGAUCUUAUAAAACAAAUGCUGCUGCUAUGAAU,0.476
UUGGAAAAUGGAUAUACCUUAUUUGAUUAUGAUGUUGGACUGAAUGAUAUAAUUCAGCUGCCCGUUCGCCCAGACCCUGAUCAUCUUCCUGGCACAUCUACACAGAUUGAGGCUAAACCC,0.145
ACCUGAGAAUGAUGCUAAGAAAAUUGAAGCACUGCUAAACCUUCCUAGAAACCCUUCAGUAACCGAUAAACAAGACAAGGACUGAAAGUGCUCUGAACUUGAAACUCACUGGAGAGCUGA,0.237
ACUGGAAAGACUCUGGUUGCCAGAGCACUUGCCAAUGAGUGCAGUCAAGGGGAUAAAAGAGCCGCAUUUUUCAUGAGGAAAGGUGCUGAUUGUCUAAGUAAAUGGGUAGGAGAAUCUGAA,0.18
UGUCCAGGUUGCUACAAGAUCACCACGGUUUUCAGCCAUGCUCAGACAGUGGUUCUUUGUGCCGGUUGUUCAACAGUGUUGUGCCAGCCUACAGGAGGAAAGGCCAGACUCACAGAAGGG,0.141
AUUGAACCUGUAUUUCCGGAGAACACAGAAAACUCUGAAAAAAUAUCCCUUCAGCUUCAUUCCGCUCUGACUUCAAAUUCAUCUUGGGUUCAGUGUCCCAGCCAUUUGGAACUCAUGAAU,0.124
GUGAUGUUACUCUCCAUUUUUGGUACCAGUUCUGAGACUGUAAGACUUUUCAUCUGGGACUUCCGCACACACUGAAUCGAAGUUGUGAUACGCGGAGCGGGAGGUGGGCAUAGACUCUAU,0.302
UCCACCAGUGAUGCCUUCUGGAAAUCACCAAAUUCCUCGUCGAGGAUUUCACCCCCCGUGUUGUUUUCCAAUUUGCCUGUGAACCAUAAAAUGGAGCACAAUAAUAAUGACACUCAACAG,0.139
ACAAUACUUGAACAUUUUAAUCUUUUGGAAUAUUGUCUUUCUUUGUUAUAACUAUUCAUUUUCCGCUUUUGUCUCCAGUGCAUGAUCUCAUAUUUUUGCUUUUAUUUUUAGUAUAAGAAC,1.97

# Sample 3 — technique: RNA Bind-n-Seq; form: RNA; matrix: in vitro; tested at: 20 nM; setting: 6-mer, flanks averaged, single round; with: 150 mM LiCl; relative to: input library; reading: higher = stronger binding
# Target: TAR DNA-binding protein 43, full length, His tag (TARDBP, Homo sapiens, UniProt Q13148, residues 1-414)
Sequence,6-mer enrichment (R)
AUAACU,0.904
AAGGAG,0.984
GCCGCU,0.944
UGGGUG,1.68
CGAUCC,0.823
AACAUG,0.86
ACUGAA,0.84
CACCCC,1.16
AUCACU,0.832
CUCAUC,0.836
GCUCAU,0.879
AAGAUG,0.916
AUAUUA,0.991
ACCGAU,0.821

# Sample 4 — technique: RNA Bind-n-Seq; form: RNA; matrix: in vitro; tested at: 365 nM; relative to: no-protein control; reading: higher = stronger binding
# Target: RNA binding protein fox-1 homolog 2, RRM domain, GST-SBP tag (RBFOX2, Homo sapiens, UniProt O43251-10, residues 100-194)
# Setting: natural RNA segment, single round, ends assumed
# Constant ends, left off below: GGGAGUUCUACAGUCCGACGAUC … UGGAAUUCUCGGGUGCCAA
# Construct (chain): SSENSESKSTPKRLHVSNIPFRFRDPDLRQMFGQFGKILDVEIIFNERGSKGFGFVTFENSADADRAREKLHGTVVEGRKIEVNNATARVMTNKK
Sequence,RBNS enrichment (R)
GGGAGGAUCAUUUGUGCCCAGGUUGAGGCUAUAGUGAGCCAUGAUCAUACCACUGCACUCCAGCCUGGGUGACAGAGCGAGACCCUGUCUCAAAAAAAAAAAAGAAUUUG,0.595
ACAAUGAUAUCUGUAUGUCACUGUAAUGUUGGCCUUCGUGGGGAACCACACUUGGUGGAGCCCGAUUCCCUUGUCUCAGACCAUGGUUAGUUACAUAAUUUUAUGGACUA,0.264
UCUGCAGCUUUCUGUGUAAGGCCCGUGUACUCCCACUGGGCAGGGUGAGGACCAAAAAUCUGAAACUCUUAUGAAUCUGACAUAUUAUAUGGAAAUUAUAUCUUGUGACC,0.472
UCCUCUUCAUAGGCAGAAUCCUGGACCCCAGUAGUACUUAAUGUCUCAGUGCUCUACAGAACCCCCAGAGGGAAGCUGAUUAUACAUUCCAGGAAGGCGGCCGGUAGCUU,0.47
AAGUCUUUGUUUUUGAAAAACAAAAAUCAAAAACAGUAACUAUUUUAUAUGGAAAUGUGUCUUGAUAAUAUUACCUAUUAAAUGUGUAUUUAUAGUCCCUCCUAUCAAAC,0.498
GAUUUGAAUACAUUUUUCUGGAACUAUUCAUAAUAUGAAGUUUUCCUAGAACCACUGAGUUUCUAGUUUAAUAGUUUGCUAUGCAAAUGACCACCUAAAACAAUACUUUA,0.661
UCGCUCUGCAUGCUCUCUGUCAUACAGACAGGUAACCUAGUUCUGUGUUCACGUGGCCCCCGACUCCUCAGCCACAUCAAGUCUCCUAGACCACUGUGGACUCUAAACUG,0.305
AGUUAAAAGACUCCAGAAGCCUGUCUCCCCUGCCUGUGUCUGCUCUCCCUCUAUGUCUAUGGUGUCCCCUGGGUUACACAGCUAAACGUGAGGGACCAUCUACCCCCCAC,1.03
AAAAUUGAUGAUAUCUUAGGGUCAGAAUUGCCCUUUUUUUUUAUUUUGAAUGGGAAGUUCUCACUAAAACAAUCCUGAGAUUUCUUAAUUUCAUGGUUCUUUAAAUAUUA,0.755
UGCAGCUUGGAGAGCAAAGGCACUUCCUCCCACGACCUUACUGCAGUAACCAUACCGAUCAAAUUCCCAGGGACAUUCUGUCAUUGCAGUAGCUCAGACCUGUCUUUUCU,0.407
GCAGAAUGCCACACCUGCAAGUUGAUUAGAACUGCCUUUCUUCCCAGGCUUGACAUAGGUAUUAAGUCAAAAUUACAUGAAACCCAGUGGUAAAAAAGCCUCUGAAAGCU,0.48
CUAUUGAAUGUCAAAGACUUACUGGGUCUUUACACCUCUGUAAAGUGGAGGUUUUGGCAAUGAGCUGUUUAACUUGGCCAAGCUAGGCUGUCAACCCAGACAACUCAGUC,0.271

# Sample 5 — technique: protein binding microarray; form: double-stranded DNA, one strand shown; matrix: in vitro; tested at: not given; relative to: not given; reading: higher = stronger binding
# Target: Histone acetyltransferase KAT6A, winged helix 1, GST fusion (KAT6A, Homo sapiens, UniProt Q92794, residues 1-85)
# Setting: 8-mer, flanks averaged, mean of 2 arrays, mostly near background
# Construct (chain): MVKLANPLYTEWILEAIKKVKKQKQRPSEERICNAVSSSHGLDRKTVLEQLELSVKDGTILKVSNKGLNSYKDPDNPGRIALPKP
Sequence,E-score
ACAATCGC,0.185
GATCGAAA,0.0228
ACAAGAAA,-0.0221
CTTAGGTC,-0.0609
CGTGTTAA,-0.0128
CTGGGTTA,-0.143
GAGTTGAC,-0.121
CGTGATGC,0.0594
AAGTTTTC,-0.19
AATCGAAC,-0.12
GGCCGTGA,0.34
AGTCGTCG,-0.0277
CCCCTTGC,-0.162
GACCGAGA,0.116
CAGGGGAA,-0.145
ACAAACAT,-0.114
ACGAACAG,0.0402
AATTGGAC,-0.158
GGCCGCGA,0.425

# Sample 6 — technique: universal PBM; form: double-stranded DNA, one strand shown; matrix: in vitro; tested at: 600 nM; reading: higher = stronger binding
# Target: Sal-like protein 4, full length isoform A (SALL4, Homo sapiens, UniProt Q9UJQ4, residues 1-1053)
# Sequence of UniProt Q9UJQ4 (whole entry, looked up): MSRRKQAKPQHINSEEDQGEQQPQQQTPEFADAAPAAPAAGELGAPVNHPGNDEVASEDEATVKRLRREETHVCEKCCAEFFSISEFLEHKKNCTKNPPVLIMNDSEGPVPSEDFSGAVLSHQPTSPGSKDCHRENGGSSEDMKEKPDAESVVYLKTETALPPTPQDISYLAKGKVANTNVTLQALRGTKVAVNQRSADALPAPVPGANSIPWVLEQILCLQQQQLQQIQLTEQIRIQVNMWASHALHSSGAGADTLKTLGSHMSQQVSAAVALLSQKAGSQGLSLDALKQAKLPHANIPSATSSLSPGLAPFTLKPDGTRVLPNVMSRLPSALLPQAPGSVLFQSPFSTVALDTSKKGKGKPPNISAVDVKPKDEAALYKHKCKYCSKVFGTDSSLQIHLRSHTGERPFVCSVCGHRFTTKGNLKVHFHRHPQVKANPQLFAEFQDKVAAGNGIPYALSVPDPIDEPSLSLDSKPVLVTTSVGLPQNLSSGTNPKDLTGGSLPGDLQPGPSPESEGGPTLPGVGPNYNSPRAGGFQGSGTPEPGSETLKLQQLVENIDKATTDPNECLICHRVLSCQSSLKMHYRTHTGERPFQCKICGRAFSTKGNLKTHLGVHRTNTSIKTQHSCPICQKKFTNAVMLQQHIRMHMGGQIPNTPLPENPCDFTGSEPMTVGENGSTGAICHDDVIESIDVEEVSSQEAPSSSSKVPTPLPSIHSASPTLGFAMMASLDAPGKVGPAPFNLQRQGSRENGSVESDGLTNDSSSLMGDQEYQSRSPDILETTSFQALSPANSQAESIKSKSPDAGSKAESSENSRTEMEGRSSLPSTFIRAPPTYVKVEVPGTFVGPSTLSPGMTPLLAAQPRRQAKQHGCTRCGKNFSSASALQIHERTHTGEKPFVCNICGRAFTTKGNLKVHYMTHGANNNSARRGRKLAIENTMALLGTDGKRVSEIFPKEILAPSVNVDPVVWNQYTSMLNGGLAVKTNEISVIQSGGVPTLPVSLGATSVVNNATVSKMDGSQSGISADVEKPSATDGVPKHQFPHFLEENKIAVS
# Setting: 8-mer, flanks averaged, mean of replicates
Sequence,E-score
GGCCTTAC,-0.195
ATCCCTTC,-0.0998
GAGGGTGC,-0.341
ACGCAACA,0.13
AGCATTTC,0.235
GCTGCAGC,-0.286
CATCTTCG,0.0554
AGTGGAGG,-0.0695
CACGATGA,0.0553
GGGACATA,0.113
AATAGCTG,0.0462
AGTAAGAT,0.211
ACTAAACA,0.232
AGGCTCAT,-0.154
GTGGTCAA,0.015
GTCGCTGA,-0.13
TACAGTAA,0.311

# Some of these lines once more (sample 5):
Sequence,E-score
CGTGATGC,0.0594
AAGTTTTC,-0.19
AATCGAAC,-0.12
GGCCGTGA,0.34
AGTCGTCG,-0.0277
CCCCTTGC,-0.162
GACCGAGA,0.116
CAGGGGAA,-0.145
ACAAACAT,-0.114
ACGAACAG,0.0402
AATTGGAC,-0.158
